# Assay results of several laboratories.
# Protocols differ between the studies behind these lines. Values joined by “and” are separate records of one study, mostly repeats; a detail may differ. Numbers after ± are the reported error.
SMILES,organism,assay,test system,conditions,scale,quantity,value
[O-][N+]1=C(c2ccc(Cl)cc2)C2=NCCN2c2ccccc21,Prevotella spp.,bacterial growth,,,,MIC50,≤ 0.06 µg/mL
CC[C@H](C)[C@H](NC(=O)[C@H](C)NC(=O)[C@H](CCCCN)NC(=O)[C@H](CC(C)C)NC(=O)[C@H](C)NC(=O)[C@@H](NC(=O)[C@H](Cc1c[nH]cn1)NC(=O)[C@H](CC(C)C)NC(=O)[C@@H](NC(=O)[C@@H](NC(=O)[C@H](CCCCN)NC(=O)[C@H](C)NC(=O)[C@H](C)NC(=O)[C@H](CO)NC(=O)[C@H](CCCCN)NC(=O)[C@H](Cc1ccccc1)NC(=O)[C@@H](NC(=O)[C@H](CCCCN)NC(=O)[C@H](CC(C)C)NC(=O)[C@H](Cc1ccccc1)NC(=O)[C@H](CO)NC(=O)[C@H](CCCCN)NC(=O)[C@H](Cc1c[nH]c2ccccc12)NC(=O)[C@H](CCCCN)NC(C)=O)[C@@H](C)O)[C@@H](C)O)C(C)C)[C@@H](C)O)C(=O)N[C@@H](CO)C(=O)N[C@@H](CO)C(N)=O,Enterococcus faecalis,,ATCC 29212,,,MBC90,32 µg/mL
CCC1(C)CC(OC(=O)CSc2nnc(N)[nH]2)C2(C)C(C)CCC3(CCC(=O)C32)C(C)C1O (centres unmarked),Tetrahymena pyriformis and Klebsiella pneumoniae,virulence in co-culture,,,,IC50,14000 nM
COC1=CC(c2ccc[nH]2)=N/C1=C\c1[nH]c(Cc2ccccc2)cc1Cc1ccccc1.Cl,Plasmodium yoelii,,CF1 mice,"oral, 10 mg/kg daily for 4 days, day 5",relative to: vehicle,parasitaemia reduction,98%
Cc1c2c(nn1C)CSCc1cc(n(C)n1)CSc1cc(c3ccccc3c1)OCCCc1c(C(=O)O)n(C)c3c-2c(Cl)ccc13,Staphylococcus aureus,"label-free quantitative proteomics, refers to: Hld protein",SA113,3.125 µM,relative to: DMSO,downregulation,5.24 fold
CS(=O)(=O)CCCn1c(Cn2c(=O)n(CC(F)(F)F)c3ccncc32)cc2cc(Cl)ccc21,respiratory syncytial virus,RT-qPCR,"hospitalized infants 1-24 months, nasal swab","oral, 2, 1.5 or 1 mg/kg daily, day 4, low dose by age cohort",relative to: placebo,LS mean difference vs placebo,-1.5 log10 copies/mL
Cc1cc(C)cc(NC(=O)Nc2ccc(N3CCCCC3)cc2)c1,Tetrahymena pyriformis and Klebsiella pneumoniae,virulence in co-culture,,,,IC50,1520 nM
CCCCc1ccc(CNc2nc(N(C)C)nc(N(C)C)c2/N=N/c2ccc(Cl)cc2)cc1,Ostrinia furnacalis,leaf dipping,,50 mg/L,,mortality,66.7%
CCOC(=O)C1(Cc2ccccc2)CN(c2ccccc2)Cc2nnn(CCc3ccc(OC)cc3)c21 (centres unmarked),human adenovirus 2,viral replication,HEL,,,EC50,> 100000 nM
CC1(C)SC2C(NC(=O)C(NC(=O)C3=C(O)C(Cc4ccc(F)cc4)NC3=O)c3ccccc3)C(=O)N2C1C(=O)O (centres unmarked),Escherichia coli,broth microdilution,Keio mutant JW0587-1,"18 h, enterobactin-related gene",,MIC,12.5 µg/mL
COc1ccnc(C(=O)N[C@H]2COC(=O)[C@H](Cc3ccccc3)[C@@H](OC(=O)C(C)C)[C@H](C)OC2=O)c1OCOC(=O)C(C)C,Daphnia magna,"immobilisation, semi-static water exposure",,48 h,,EC50,0.00093 µg/mL
CNCCN(C)C(=O)Oc1c(Br)c(C)nc(C)c1-c1ccc(Oc2ccc(OC(F)(F)F)cc2)cc1,Plasmodium yoelii,,17XL,384-well,,IC50,229 ± 113 nM
CN[C@H](CC(C)C)C(=O)N[C@H]1C(=O)N[C@@H](CC(N)=O)C(=O)N[C@H]2C(=O)N[C@H]3C(=O)N[C@H](C(=O)N[C@H](C(=O)O)c4cc(O)cc(O)c4-c4cc3ccc4O)[C@H](O)c3ccc(c(Cl)c3)Oc3cc2cc(c3O[C@@H]2O[C@H](CO)[C@@H](O)[C@H](O)[C@H]2O[C@H]2C[C@](C)(N)[C@H](O)[C@H](C)O2)Oc2ccc(cc2Cl)[C@H]1O,Staphylococcus aureus,,"CAAS-2019-CAAS-2019-13 clinical drug-resistant isolate, 25% plasma",,,MBC,8 µg/mL
CN(C)[C@@H]1C(O)=C(C(N)=O)C(=O)[C@@]2(O)C(O)=C3C(=O)c4c(O)cccc4[C@@](C)(O)[C@H]3C[C@@H]12,Acinetobacter baumannii,,"19606, biofilm","25 µg/mL, together with: HNP1 8 µM",,survival,86.5% and 80.8% and 80.4% and 79.2% and 77.1% and 88.2%
COc1c([N+](=O)[O-])oc2ccc3ccccc3c12,Mycolicibacterium aurum,REMA,ATCC 23366,,,MIC90,> 32 µg/mL
COCCCNC(=N)c1ccc(NC(=O)c2ccc(C(=O)Nc3ccc(C(=N)NCCCOC)cc3)cc2)cc1,Tetrahymena pyriformis and Klebsiella pneumoniae,virulence in co-culture,,,,IC50,1210 nM
CCCCc1c([N+](=O)[O-])oc2ccc3ccccc3c12,Mycolicibacterium aurum,REMA,ATCC 23366,,,MIC90,2 µg/mL
COC1=CC(c2ccc[nH]2)=N/C1=C\c1cc(Cc2ccc(Cl)cc2)c(C)[nH]1.Cl,Plasmodium yoelii,,CF1 mouse,"oral, 80 mg/kg single dose, day 5",,parasitaemia reduction,100%
CN[C@H](CC(C)C)C(=O)N[C@H]1C(=O)N[C@@H](CC(N)=O)C(=O)N[C@H]2C(=O)N[C@H]3C(=O)N[C@H](C(=O)N[C@H](C(=O)O)c4cc(O)cc(O)c4-c4cc3ccc4O)[C@H](O)c3ccc(c(Cl)c3)Oc3cc2cc(c3O[C@@H]2O[C@H](CO)[C@@H](O)[C@H](O)[C@H]2O[C@H]2C[C@](C)(N)[C@H](O)[C@H](C)O2)Oc2ccc(cc2Cl)[C@H]1O,Enterococcus faecalis,,OG1RF,,,MBC,11.7 µM
COC1=CC(c2ccc[nH]2)=N/C1=C\c1[nH]c(C)cc1Cc1ccccc1.Cl,Plasmodium yoelii,,CF1 mice,"oral, 25 mg/kg daily for 4 days, day 5",relative to: vehicle,parasitaemia reduction,100%
O=C(N/N=C/c1ccc2ccccc2c1)c1ccc(O)c(O)c1,Tetrahymena pyriformis and Klebsiella pneumoniae,virulence in co-culture,,,,IC50,6270 nM
CC[C@H](C)C[C@H](C)CCCCCCCCC(=O)N[C@H]1C[C@@H](O)[C@@H](NCCN)NC(=O)[C@@H]2[C@@H](O)CCN2C(=O)[C@H]([C@H](O)CCN)NC(=O)[C@H]([C@H](O)[C@@H](O)c2ccc(O)cc2)NC(=O)[C@@H]2C[C@@H](O)CN2C(=O)[C@H]([C@@H](C)O)NC1=O,Kluyveromyces marxianus,broth dilution,ATCC 204093,"48 h, 37 °C",,MFC,0.25 µg/mL
COc1cc2oc([N+](=O)[O-])cc2c2ccccc12,Mycolicibacterium aurum,REMA,ATCC 23366,,,MIC90,0.5 µg/mL
COc1cccc(C(=O)NN(C(=O)c2cc(C)cc(C)c2)C(C)(C)C)c1C,Anopheles funestus,,"FUMOZ, pyrethroid-resistant","topical, 0.4 %",relative to: control,adult lifespan,no effect
Cn1c(=O)ccc2ccc(F)c(CCNC[C@H]3CN(c4cnc5c(n4)NC(=O)CO5)C(=O)O3)c21,Bacteroides fragilis,,,,,MIC90,0.25 µg/mL
Nc1ncnc2c1ncn2[C@@H]1O[C@@H]2COP(=O)(O)O[C@H]3[C@@H](O)[C@H](n4cnc5c(=O)[nH]cnc54)O[C@@H]3COP(=O)(O)O[C@H]2[C@H]1O,West Nile virus,"RNA sequencing Reactome analysis, refers to: Signal Transduction (R-HSA-162582)",HFF-1,"concentration not given, upregulated pathways, together with: West Nile virus infection",relative to: WNV-infected without compound,fold enrichment,1.46
